Published values collected from several papers.
Lines come from different studies, so protocols differ. Numbers after ± are the reported error.
U2AF2: U2AF2 148-342 (Homo sapiens, UniProt P26368)
UniProt P26368, sequence (whole entry, looked up): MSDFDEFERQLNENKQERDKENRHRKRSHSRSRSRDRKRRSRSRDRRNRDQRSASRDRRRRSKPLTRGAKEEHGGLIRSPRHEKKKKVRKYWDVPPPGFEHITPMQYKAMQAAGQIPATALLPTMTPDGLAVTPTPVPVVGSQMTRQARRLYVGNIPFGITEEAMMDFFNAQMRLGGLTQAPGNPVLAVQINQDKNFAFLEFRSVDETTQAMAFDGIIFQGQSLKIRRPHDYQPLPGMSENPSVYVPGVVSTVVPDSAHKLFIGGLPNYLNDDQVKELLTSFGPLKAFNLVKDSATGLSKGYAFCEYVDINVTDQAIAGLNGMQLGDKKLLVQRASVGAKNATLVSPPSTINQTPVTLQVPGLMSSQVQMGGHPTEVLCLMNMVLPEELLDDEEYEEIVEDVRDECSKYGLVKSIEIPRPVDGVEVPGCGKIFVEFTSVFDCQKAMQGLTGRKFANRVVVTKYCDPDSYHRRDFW
B1: KCNJ13 2-360 (Homo sapiens, UniProt O60928-1); sequence looked up; chain DSSNCKVIAPLLSQRYRRMVTKDGHSTLQMDGAQRGLAYLRDAWGILMDMRWRWMMLVFSASFVVHWLVFAVLWYVLAEMNGDLELDHDAPPENHTICVKYITSFTAAFSFSLETQLTIGYGTMFPSGDCPSAIALLAIQMLLGLMLEAFITGAFVAKIARPKNRAFSIRFTDTAVVAHMDGKPNLIFQVANTRPSPLTSVRVSAVLYQERENGKLYQTSVDFHLDGISSDECPFFIFPLTYYHSITPSSPLATLLQHENPSHFELVVFLSAMQEGTGEICQRRTSYLPSEIMLHHCFASLLTRGSKGEYQIKMENFDKTVPEFPTPLVSKSPNRTDLDIHINGQSIDNFQISETGLTE
B2: ACAT1 35-427 Y90F (Homo sapiens, UniProt P24752); pY407; chain SKPTLKEVVIVSATRTPIGSFLGSLSLLPATKLGSIAIQGAIEKAGIPKEEVKEAFMGNVLQGGEGQAPTRQAVLGAGLPISTPCTTINKVCASGMKAIMMASQSLMCGHQDVMVAGGMESMSNVPYVMNRGSTPYGGVKLEDLIVKDGLTDVYNKIHMGSCAENTAKKLNIARNEQDAYAINSYTRSKAAWEAGKFGNEVIPVTVTVKGQPDVVVKEDEEYKRVDFSKVPKLKTVFQKENGTVTAANASTLNDGAAALVLMTADAAKRLNVTPLARIVAFADAAVEPIDFPIAPVYAASMVLKDVGLKKEDIAMWEVNEAFSLVVLANIKMLEIDPQKVNINGGAVSLGHPIGMSGARIVGHLTHALKQGEYGLASICNGGGGASAMLIQKL
B3: PHYA F389E (Arabidopsis thaliana, UniProt P14712); phytochromobilin thioether linked; chain GMSGSRPTQSSEGSRRSRHSARIIAQTTVDAKLHADFEESGSSFDYSTSVRVTGPVVENQPPRSDKVTTTYLHHIQKGKLIQPFGCLLALDEKTFKVIAYSENASELLTMASHAVPSVGEHPVLGIGTDIRSLFTAPSASALQKALGFGDVSLLNPILVHCRTSAKPFYAIIHRVTGSIIIDFEPVKPYEVPMTAAGALQSYKLAAKAITRLQSLPSGSMERLCDTMVQEVFELTGYDRVMAYKFHEDDHGEVVSEVTKPGLEPYLGLHYPATDIPQAARFLFMKNKVRMIVDCNAKHARVLQDEKLSFDLTLCGSTLRAPHSCHLQYMANMDSIASLVMAVVVNEEDGEGDAPDATTQPQKRKRLWGLVVCHNTTPRFVPFPLRYACEELAQVFAIHVNKEVELDNQMVEKNILRTQTLLCDMLMRDAPLGIVSQSPNIMDLVKCDGAALLYKDKIWKLGTTPSEFHLQEIASWLCEYHMDSTGLSTDSLHDAGFPRALSLGDSVCGMAAVRISSKDMIFWFRSHTAGEVRWGGAKHDPDDRDDARRMHPRSSFKAFLEVVKTRSLPWKDYEMDAIHSLQLILRNAFKDSETTDVNTKVIYSKLNDLKIDGIQELEAVTSEMVRLIETATVPILAVDSDGLVNGWNTKIAELTGLSVDEAIGKHFLTLVEDSSVEIVKRMLENALEGTEEQNVQFEIKTHLSRADAGPISLVVNACASRDLHENVVGVCFVAHDLTGQKTVMDKFTRIEGDYKAIIQNPNPLIPPIFGTDEFGWCTEWNPAMSKLTGLKREEVIDKMLLGEVFGTQKSCCRLKNQEAFVNLGIVLNNAVTSQDPEKVSFAFFTRGGKYVECLLCVSKKLDREGVVTGVFCFLQLASHELQQALHVQRLAERTAVKRLKALAYIKRQIRNPLSGIMFTRKMIEGTELGPEQRRILQTSALCQKQLSKILDDSDLESIIEGCLDLEMKEFTLNEVLTASTSQVMMKSNGKSVRITNETGEEVMSDTLYGDSIRLQQVLADFMLMAVNFTPSGGQLTVSASLRKDQLGRSVHLANLEIRLTHTGAGIPEFLLNQMFGTEEDVSEEGLSLMVSRKLVKLMNGDVQYLRQAGKSSFIITAELAAANK
B4: human hnRNP C; sequence looked up; chain ASNVTNKTDPRSMNSRVFIGNLNTLVVKKSDVEAIFSKYGKIVGCSVHKGFAFVQYVNERNARAAVAGEDGRMIAGQVLDINLAAEPKVNRGKAGVKRSAAEMYGSVTEHPSPSPLLSSSFDLDYDFQRDYYDRMYSYPARVPPPPPIARAVVPSKRQRVSGNTSRRGKSGFNSKSGQRGSSKSGKLKGDDLQAIKKELTQIKQKVDSLLENLEKIEKEQSKQAVEMKNDKSEEEQSSSSVKKDETNVKMESEGGADDSAEEGDLLDDDDNEDRGDDQLELIKDDEKEAEEGEDDRDSANGEDDS
B5: ddrC 1-98 (Deinococcus radiodurans, UniProt Q9RYE6); sequence looked up; chain MKNAPLTLNFGSVRLPVSADGLLHAPTAQQQLGLTQSWEAALVEHGLPETYRDFGAGPEAAVSVPDFVALAFALDTPEARRWQKRARELLARAMQGDV
B6: S100P (Homo sapiens, UniProt P25815); sequence looked up; chain MTELETAMGMIIDVFSRYSGSEGSTQTLTKGELKVLMEKELPGFLQSGKDKDAVDKLLKDLDANGDAQVDFSEFIVFVAAITSACHKYFEKAGLK
B7: human CIP4; sequence looked up; chain MDWGTELWDQFEVLERHTQWGLDLLDRYVKFVKERTEVEQAYAKQLRSLVKKYLPKRPAKDDPESKFSQQQSFVQILQEVNDFAGQRELVAENLSVRVCLELTKYSQEMKQERKMHFQEGRRAQQQLENGFKQLENSKRKFERDCREAEKAAQTAERLDQDINATKADVEKAKQQAHLRSHMAEESKNEYAAQLQRFNRDQAHFYFSQMPQIFDKLQDMDERRATRLGAGYGLLSEAELEVVPIIAKCLEGMKVAANAVDPKNDSHVLIELHKSGFARPGDVEFEDFSQPMNRAPSDSSLGTPSDGRPELRGPGRSRTKRWPFGKKNKPRPPPLSPLGGPVPSALPNGPPSPRSGRDPLAILSEISKSVKPRLASFRSLRGSRGTVVTEDFSHLPPEQQRKRLQQQLEERSRELQKEVDQREALKKMKDVYEKTPQMGDPASLEPQIAETLSNIERLKLEVQKYEAWLAEAESRVLSNRGDSLSRHARPPDPPASAPPDSSSNSASQDTKESSEEPPSEESQDTPIYTEFDEDFEEEPTSPIGHCVAIYHFEGSSEGTISMAEGEDLSLMEEDKGDGWTRVRRKEGGEGYVPTSYLRVTLN
B8: sodN mature (Streptomyces coelicolor, UniProt P80735); sequence looked up; chain HCDLPCGVYDPAQARIEAESVKAVQEKMAGNDDPHFQTRATVIKEQRAELAKHHVSVLWSDYFKPPHFEKYPELHQLVNDTLKALSAAKGSKDPATGQKALDYIAQIDKIFWETKKA
B9: protein 303-462 (Bacillus pumilus, UniProt A3FMN7); sequence looked up; chain TIDKNALGDEGENLVLEYEKERVKLFDPSLVRKVVHLGKTKGLGYDIQSVVAEDGDFAEFVKYIEVKSTKRVTVPNLDDPSWIDTINLTRNEWIAATQHKSSYYLYRVYFTPGLATMYVINDPFTKNKDDILRAKPVSYRLDFSNKAVDFMVTEEKEEYR
B10: bcsZ 22-368 (Escherichia coli, UniProt P37651); chain ACTWPAWEQFKKDYISQEGRVIDPSDARKITTSEGQSYGMFSALAANDRAAFDNILDWTQNNLAQGSLKERLPAWLWGKKENSKWEVLDSNSASDGDVWMAWSLLEAGRLWKEQRYTDIGSALLKRIAREEVVTVPGLGSMLLPGKVGFAEDNSWRFNPSYLPPTLAQYFTRFGAPWTTLRETNQRLLLETAPKGFSPDWVRYEKDKGWQLKAEKTLISSYDAIRVYMWVGMMPDSDPQKARMLNRFKPMATFTEKNGYPPEKVDVATGKAQGKGPVGFSAAMLPFLQNRDAQAVQRQRVADNFPGSDAYYNYVLTLFGQGWDQHRFRFSTKGELLPDWGQECANSH
B11: KCNQ5 90-698 (Homo sapiens, UniProt Q9NR82); sequence looked up; chain LGKPLSYTSSQSCRRNVKYRRVQNYLYNVLERPRGWAFIYHAFVFLLVFGCLILSVFSTIPEHTKLASSCLLILEFVMIVVFGLEFIIRIWSAGCCCRYRGWQGRLRFARKPFCVIDTIVLIASIAVVSAKTQGNIFATSALRSLRFLQILRMVRMDRRGGTWKLLGSVVYAHSKELITAWYIGFLVLIFSSFLVYLVEKDANKEFSTYADALWWGTITLTTIGYGDKTPLTWLGRLLSAGFALLGISFFALPAGILGSGFALKVQEQHRQKHFEKRRNPAANLIQCVWRSYAADEKSVSIATWKPHLKALHTCSPTKKEQGEASSSQKLSFKERVRMASPRGQSIKSRQASVGDRRSPSTDITAEGSPTKVQKSWSFNDRTRFRPSLRLKSSQPKPVIDADTALGTDDVYDEKGCQCDVSVEDLTPPLKTVIRAIRIMKFHVAKRKFKETLRPYDVKDVIEQYSAGHLDMLCRIKSLQTRVDQILGKGQITSDKKSREKITAEHETTDDLSMLGRVVKVEKQVQSIESKLDCLLDIYQQVLRKGSASALALASFQIPPFECEQTSDYQSPVDSKDLSGSAQNSGCLSRSTSANISRGLQFILTPNEFS
B12: Gm4951 D125G (Mus musculus, UniProt Q3UED7); sequence looked up; chain MGQLFSSRRSEDQDLSSSFIEYLKECEKGINIIPHEIITSIEINMKKGNIQEVNSTVRDMLREIDNTPLNVALTGETGSGKSSFINTLRGIGHEEGGAAHTGVTDKTKERHPYEHPKMPNVVFWGLPGTGSEDFQPKTYLEKMKFYEYDFFIIISATRFKKNDIDLAKAIGIMKKEFYFVRTQVDSDLRNEEDFKPQTFDREKVLQDIRLNCVNTFRENGIAEPPIFLISNKNVCHYDFPVLMDKLISDLPVFKRQNFMFSLPNITDSVIEKKRNFLRWKTWLEGFADGLLSFFLESDLETLEKSMKFYRTVFGVDDASLQRLARAWEIDQVDQVRAMIKSPAVFTPTDEETIQERLSRYNQEFCLANGYLLPKNHCREILYLKLYFLDMVTEDAKTLLKEICLRN
B13: AMY3 56-391 (Arabidopsis thaliana, UniProt Q94A41); sequence looked up; chain SMNKSPVAIRATSSDTAVVETAQSDDVIFKEIFPVQRIEKAEGKIYVRLKEVKEKNWELSVGCSIPGKWILHWGVSYVGDTGSEWDQPPEDMRPPGSIAIKDYAIETPLKKLSEGDSFFEVAINLNLESSVAALNFVLKDEETGAWYQHKGRDFKVPLVDDVPDNGNLIGAKKGFGALGQLSNIPLKQDKSSAETDSIEERKGLQEFYEEMPISKRVADDNSVSVTARKCPETSKNIVSIETDLPGDVTVHWGVCKNGTKKWEIPSEPYPEETSLFKNKALRTRLQRKDDGNGSFGLFSLDGKLEGLCFVLKLNENTWLNYRGEDFYVPFLTSSSS
UniProt P22770, sequence (whole entry, looked up): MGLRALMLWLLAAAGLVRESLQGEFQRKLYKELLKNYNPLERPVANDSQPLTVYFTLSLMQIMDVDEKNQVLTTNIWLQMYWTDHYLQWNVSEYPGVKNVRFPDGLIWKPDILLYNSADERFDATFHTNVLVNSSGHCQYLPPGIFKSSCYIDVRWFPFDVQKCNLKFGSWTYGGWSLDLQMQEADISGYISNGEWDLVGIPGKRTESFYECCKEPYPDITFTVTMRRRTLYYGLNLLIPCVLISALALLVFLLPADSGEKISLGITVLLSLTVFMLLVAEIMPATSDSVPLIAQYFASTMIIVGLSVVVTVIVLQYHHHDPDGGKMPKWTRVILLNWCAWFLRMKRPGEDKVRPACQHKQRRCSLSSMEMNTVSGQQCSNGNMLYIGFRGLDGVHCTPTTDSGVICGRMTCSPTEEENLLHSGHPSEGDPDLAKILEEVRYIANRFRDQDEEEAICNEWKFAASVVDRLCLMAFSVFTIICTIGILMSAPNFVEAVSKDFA

B1 (KCNJ13 2-360)
subunits per oligomer (itself; SEC): 4

MKGMSKMPQFNLRWPREVLDLVRKVAEENGRSVNSEIYQRVMESFKKEGRIGA (Arc repressor 1-53 (P22 phage, UniProt P03050))
subunits per oligomer (itself; SEC): 2

B2 (ACAT1 35-427 Y90F)
subunits per oligomer (itself; native gel; Y90F mutant): 4

B3 (PHYA F389E)
subunits per oligomer (itself; SEC): 2

B4 (human hnRNP C)
log2 fold change (CYB5R4 knockout human cells; PP4 interaction, 3xFLAG-PP4C IP-MS; concentration not given; relative to: CYB5R4 KO over parental): 0.49

B5 (ddrC 1-98)
subunits per oligomer (itself; SEC-MALS): 1.84 ± 0.11 n-mer

B6 (S100P)
subunits per oligomer (itself; AUC): 2

B7 (human CIP4)
log2 fold change (CYB5R4 knockout human cells; PP4 interaction, 3xFLAG-PP4C IP-MS; concentration not given; relative to: CYB5R4 KO over parental): -0.32

B8 (sodN mature)
subunits per oligomer (itself; ESI-MS; denaturing conditions): 6

AUUUUUACU (ssRNA)
Kd (U2AF2; sequencing of bound RNA; RNA; motif only): 4.98 µM

HSS (UniProt A0A2P1M5T0)
subunits per oligomer (itself; SEC): 4

B9 (protein 303-462)
subunits per oligomer (itself; SEC): 2

B10 (bcsZ 22-368)
subunits per oligomer (itself; cryo-EM): 4

B11 (KCNQ5 90-698)
subunits per oligomer (itself; cryo-EM): 4

VSRVSHEELEDRFLRLHDENILLKQHARKQEDKIKRMATKLIRLVNDKKRYERVGG (RPGRIP1L CC1 42-97 R47H (Mus musculus, UniProt Q8CG73); sequence looked up)
subunits per oligomer (itself; SEC-MALS): 2

MVRVITFKAEEELLVKLDLFALNSRMSRSEIIRMAIEKYLEEAAGGIRTRDRRLSRQ (SiRe_1157 (Saccharolobus islandicus, UniProt F0NEU4); sequence looked up)
subunits per oligomer (itself; SEC): 2

CHRNA7 (Gallus gallus, UniProt P22770)
subunits per oligomer (itself; sucrose gradient sedimentation): 5

B12 (Gm4951 D125G)
subunits per oligomer (itself; mass photometry): 2

B13 (AMY3 56-391)
subunits per oligomer (itself; cross-linking; 30 min, pH 7.5): 2

AAAAUGUUUUUUUCUAAGA (ssRNA)
Kd (U2AF2; MST; RNA): 7.457 ± 0.0311 µM

Excerpt of the above:
B9 (protein 303-462)
subunits per oligomer (itself; SEC): 2

B5 (ddrC 1-98)
subunits per oligomer (itself; SEC-MALS): 1.84 ± 0.11 n-mer
